Assay results collected from several papers.
± gives the spread as reported.

| Structure (SMILES) | target or system | assay | test system | conditions | endpoint | result |
| --- | --- | --- | --- | --- | --- | --- |
| CCCCn1cc(C(=O)O)c(=O)c2cc(F)c(Nc3ccccc3Cl)c(N)c21 | HT-29 | cell growth or viability, SRB | – | – | IC50 | 95.4 µM |
| C[C@@H]1O[C@@H](Oc2cc3c(=O)oc4c(O)c(O)cc5c(=O)oc(c2O)c3c45)[C@H](O)[C@H](OC(=O)c2cc(O)c(O)c(O)c2)[C@H]1OC(=O)c1cc(O)c(O)c(O)c1 | HUVEC | cell growth or viability, MTT | – | 48 h | IC50 | > 100 µg/mL |
| N=C(N)NCCC[C@@H](NC(=O)[C@H](N)Cc1c[nH]c2ccccc12)C(=O)N[C@H](CCCCN)C(=O)N[C@H](Cc1c[nH]c2ccccc12)C(=O)N[C@H](CCCNC(=N)N)C(=O)N[C@H](CCCCN)C(=O)N[C@H](Cc1c[nH]c2ccccc12)C(=O)N[C@H](CCCNC(=N)N)C(=O)N[C@H](CCCCN)C(=O)N[C@H](Cc1c[nH]c2ccccc12)C(=O)N[C@H](CCCNC(=N)N)C(=O)N[C@H](CCCCN)C(N)=O | BV-2 | cytotoxicity, MTT | – | 24 h | IC50 | 64 µM |
| C[C@H](NC(=O)[C@H](CCC(N)=O)NC(=O)[C@H](CCCCN)NC(=O)[C@H](C)NC(=O)[C@@H]1CCCN1C(=O)[C@H](C)NC(=O)[C@H](CCCCN)NC(=O)[C@H](CCC(N)=O)NC(=O)[C@H](C)NC(=O)[C@H](CCCCN)NC(=O)[C@H](CCC(N)=O)NC(=O)[C@@H]1CCCN1C(=O)[C@H](CCC(N)=O)NC(=O)[C@H](CCCCN)NC(=O)[C@H](C)NC(=O)[C@H](CCC(N)=O)NC(=O)[C@H](CCCCN)NC(=O)[C@H](C)NC(=O)[C@@H]1CCCN1C(=O)[C@H](C)NC(=O)[C@H](CCCCN)NC(=O)[C@H](CCC(N)=O)NC(=O)[C@H](C)NC(=O)[C@H](CCCCN)NC(=O)[C@H](CO)NC(=O)[C@H](Cc1ccc(O)cc1)NC(=O)CNC(=O)CNC(=O)CN)C(=O)N[C@@H](CCCCN)C(=O)N[C@@H](CCC(N)=O)C(=O)O | – | binding, SPR two-state model | rVλ6Wil fibrils | 300 nM | Rmax | 31.5 RU |
| C[C@@H]1O[C@@H](Oc2cc3c(=O)oc4c(O)c(O)cc5c(=O)oc(c2O)c3c45)[C@H](O)[C@H](O)[C@H]1OC(=O)c1cc(O)c(O)c(O)c1 | HUVEC | cell growth or viability, MTT | – | 48 h | IC50 | > 100 µg/mL |
| CCCCn1cc(C(=O)O)c(=O)c2cc(F)c(Nc3ccccc3Cl)c([N+](=O)[O-])c21 | SW480 | cell growth or viability, SRB | – | – | IC50 | 284 µM |
| CC1N=C(CCCCCCCCCCC2=CC(CCCCCCCCCCC3=NC(C)C(O)CC3)C3CCCN3C2)CCC1O (stereo not shown) | PMA-differentiated THP-1 | cytotoxicity, Neutral Red | – | – | IC50 | 8.47 ± 1.32 µg/mL |
| CC[C@H](C)[C@H](NC(=O)[C@H](CCCCN)NC(=O)[C@H](CCCCN)NC(=O)[C@H](Cc1ccccc1)NC(=O)[C@H](Cc1ccccc1)NC(=O)[C@H](CCCCN)NC(=O)[C@H](CCCCN)NC(=O)[C@H](Cc1ccccc1)NC(=O)[C@H](CCCNC(=N)N)NC(=O)[C@@H](N)CCCCN)C(=O)N[C@@H](CCCCN)C(=O)N[C@@H](CCCCN)C(=O)N[C@@H](CO)C(=O)N[C@H](C(=O)N[C@@H](CCCCN)C(=O)N[C@@H](CCCCN)C(=O)N[C@@H](CCCNC(=N)N)C(=O)N[C@H](C(=O)N[C@@H](CCCCN)C(=O)N[C@@H](CCCCN)C(=O)N[C@@H](CC(C)C)C(=O)N[C@@H](Cc1ccccc1)C(=O)N[C@@H](CCCCN)C(=O)N[C@@H](CCCCN)C(=O)N1CCC[C@H]1C(=O)N[C@@H](CCCNC(=N)N)C(=O)N[C@H](C(=O)N[C@H](C(=O)N1CCC[C@H]1C(=O)N[C@H](C(=O)N[C@@H](CO)C(=O)N[C@H](C(=O)N1CCC[C@H]1C(=O)N[C@@H](Cc1ccccc1)C(=O)O)[C@@H](C)CC)[C@@H](C)CC)[C@@H](C)CC)C(C)C)C(C)C)C(C)C | L929 | cytotoxicity, MTT | – | 48 h | IC50 | > 128 µg/mL |
| CCCCCCCCC(=O)NCc1ccc(O)c(OC)c1 | mAb 2-LD2 | antibody binding, indirect competitive ELISA | – | with: coating antigen hapten 1-OVA | IC50 | 0.0065 µg/mL |
| CN[C@](C)(C[18F])C(=O)O | MDA-MB-468 tumour model | – | host not given, pancreas | 2 h, tumour-bearing | tracer uptake | 12 %ID/g |
| CCCCn1cc(C(=O)O)c(=O)c2cc(F)c3c(nnn3-c3cccc(Cl)c3)c21 | HT-29 | cell growth, SRB | – | 72 h | IC50 | 59.6 ± 2.49 µg/mL |
| CCN(Cc1ccccc1)C(=O)CCc1nc(CN2CCN(C(=O)Cc3ccc(OC)c(OC)c3)CC2)no1 | KCNQ4 (Homo sapiens, UniProt P56696) | potassium current, whole-cell patch clamp | CHO, stable | 3 µM | activation V1/2 | -29.7 ± 1.44 mV |
| C#CCCC[C@@H]1OC(=O)CNC(=O)[C@H]([C@@H](C)CC)NC(=O)[C@@H]2CCCN2C(=O)[C@H]([C@@H](C)CC)OC(=O)[C@H](Cc2ccccc2)NC(=O)[C@H](C(C)C)NC(=O)C1(C)C | HT-29 | cytotoxicity, MTT | – | 48 h, 10% fetal bovine serum | IC50 | > 100 µM |

Excerpt of the above:
| Structure (SMILES) | target or system | assay | test system | conditions | endpoint | result |
| --- | --- | --- | --- | --- | --- | --- |
| C[C@@H]1O[C@@H](Oc2cc3c(=O)oc4c(O)c(O)cc5c(=O)oc(c2O)c3c45)[C@H](O)[C@H](OC(=O)c2cc(O)c(O)c(O)c2)[C@H]1OC(=O)c1cc(O)c(O)c(O)c1 | HUVEC | cell growth or viability, MTT | – | 48 h | IC50 | > 100 µg/mL |
| N=C(N)NCCC[C@@H](NC(=O)[C@H](N)Cc1c[nH]c2ccccc12)C(=O)N[C@H](CCCCN)C(=O)N[C@H](Cc1c[nH]c2ccccc12)C(=O)N[C@H](CCCNC(=N)N)C(=O)N[C@H](CCCCN)C(=O)N[C@H](Cc1c[nH]c2ccccc12)C(=O)N[C@H](CCCNC(=N)N)C(=O)N[C@H](CCCCN)C(=O)N[C@H](Cc1c[nH]c2ccccc12)C(=O)N[C@H](CCCNC(=N)N)C(=O)N[C@H](CCCCN)C(N)=O | BV-2 | cytotoxicity, MTT | – | 24 h | IC50 | 64 µM |
